Published values of several laboratories.
Numbers after ± are the reported error.

Structure (SMILES)	cell line	test	system	setting	IC50
CCOc1cncc(-c2ccc(NC(=O)C3(c4ccnc(NS(=O)(=O)C5CC5)n4)CCOCC3)nc2)n1	IM-9	cell growth or viability, ATP luminescence	–	72 h	3.58 µM
Cc1cc([C@H](C(=O)N2C[C@H](O)C[C@H]2C(=O)N[C@@H](CC(=O)N2CCC(N3CCC(C#Cc4ccc(C(=O)N[C@H]5C(C)(C)[C@H](Oc6ccc(C#N)c(Cl)c6)C5(C)C)cc4)CC3)CC2)c2ccc(-c3scnc3C)cc2)C(C)C)on1	HCC1428	cell growth or viability, CCK-8	–	7 days	0.12 µM
CC1C(O)CC2(CO)CCC3(C)C(=CCC4C(C)(CCC(=O)O)C(C(C)(O)CO)CCC43C)C2C1C (stereo not shown)	RAW264.7	NO release, inhibitor, Griess	–	LPS-stimulated	> 100 µM
CC[C@H](C)[C@H](NC(=O)C[C@H](CCCCN)NC(=O)[C@H](CCCCN)NC(=O)C[C@@H](NC(=O)[C@@H](NC(=O)C[C@H](CCCCN)NC(=O)[C@H](Cc1ccccc1)NC(=O)C[C@H](CC(C)C)NC(=O)CN)[C@@H](C)CC)[C@@H](C)CC)C(=O)N[C@H](CC(=O)N[C@@H](CCCCN)C(=O)N[C@H](CC(=O)N[C@@H](Cc1ccccc1)C(N)=O)CC(C)C)CC(C)C	NIH 3T3	cytotoxicity	–	–	7 µg/mL
NC(=O)c1ccc(-c2ccccc2Cl)c2c3c([nH]c12)CC[C@@H](N)C3	U-937	cell growth or viability	–	–	0.00893 µM
CC(C)c1ccc(N(C)c2ccc3c(c2)OCC[C@H]3CNc2cnccc2C(=O)O)cc1	HLE	cell growth or viability, ATP luminescence	–	7 days	0.0113 µM
O=C(OCc1ccc(O[C@@H]2O[C@H](CO)[C@@H](O)[C@H](O)[C@H]2O)cc1)c1ccc(O)cc1	MDA-MB-231 breast cancer	cell viability, MTT	DMEM with 10% FBS	48 h	> 200 µM
CCNC(=S)NN=Cc1c2ccccc2cc2ccccc12.Cc1ccc(C(C)C)cc1.[Cl-].[Cl-].[Ru+2]	Caco-2	cytotoxicity, MTS	–	24 h	256 ± 4 µM
CC#CC#C/C=C1/O[C@@]2(CCCCO2)[C@@H](O)[C@@H]1O	RAW264.7	NO release, inhibitor, Griess	–	LPS-stimulated	> 50 µM
Cn1ncc(-c2ccc3c(=O)[nH]nc(CN)c3c2)c1-c1c(F)c(Cl)cc(OC2CC2)c1C#N	SNU-387	cell viability, inhibitor, CellTiter-Glo	–	120 h, baseline-subtracted	1.45 µM
O=C(NCCOCCNC(=O)c1cc2ccccc2c2ccccc12)c1cc(C(=O)N2CCNCCNCCNCC2)c(O)c(C(=O)N2CCNCCNCCNCC2)c1	WI-38	cell growth or viability, MTT	–	24 h	> 1000 µM
CNS(=O)(=O)Nc1nccc(Cc2c(C)c3ccc(Oc4ncccc4F)cc3oc2=O)c1F	HCC1500	cell viability	–	7 days	> 1 µM
CC[C@H](C)[C@H](NC(=O)C[C@H](CCCCN)NC(=O)[C@H](Cc1ccccc1)NC(=O)[C@H]1CCC[C@@H]1NC(=O)CN)C(=O)N[C@H](C(=O)N[C@@H](CCCCN)CC(=O)N[C@@H](CCCCN)C(=O)N[C@H]1CCC[C@@H]1C(=O)N[C@@H](CC(C)C)C(=O)N[C@@H](CCCCN)CC(=O)N[C@@H](CC(C)C)C(=O)N[C@@H](Cc1ccccc1)C(N)=O)[C@@H](C)CC	NIH 3T3	cytotoxicity	–	–	18.7 µg/mL
CC(=O)N[C@@H](CCCNC(=N)N)C(=O)N[C@@H](Cc1c[nH]c2ccccc12)C(=O)N[C@@H](CCCNC(=N)N)C(=O)N[C@@H](Cc1c[nH]c2ccccc12)C(=O)N[C@@H](CCCNC(=N)N)C(=O)N[C@@H](Cc1c[nH]c2ccccc12)C(N)=O	MCF-10A	cell viability	–	48 h, dark	> 100 µM
NCCOc1cc(NC(=O)c2cc(OCc3cn(Cc4ccc(C(=O)O)cc4)nn3)cc(C(=O)Nc3cc(OCCN)c4ccccc4n3)n2)nc2ccccc12	WI-38	cell growth or viability, ATP luminescence	–	72 h	> 40 µM
CC[C@H](C)[C@H](NC(=O)[C@H](CCCCN)NC(=O)[C@H](Cc1ccccc1)NC(=O)[C@H]1CCC[C@@H]1NC(=O)CN)C(=O)N[C@H](CC(=O)N[C@@H](CCCCN)C(=O)N[C@@H](CCCCN)C(=O)N[C@H](CC(=O)N[C@@H](CC(C)C)C(=O)N[C@@H](CCCCN)C(=O)N[C@@H](CC(C)C)C(=O)N[C@H](CC(N)=O)Cc1ccccc1)[C@@H](C)CC)[C@@H](C)CC	NIH 3T3	cytotoxicity	–	–	4.1 µg/mL
CCn1cc(-c2cccc(C(F)(F)F)c2)c2sc(C(=N)NC3CCS(=O)(=O)CC3)cc2c1=O	EOL1	cell growth or viability, ATP luminescence	–	–	6.25 µM
CC(C)=CC1OC(C)(C)C2C=C3C(=O)C(Cl)=CC(O)C3C3C(O)C4OC4C(=O)C132 (stereo not shown)	PC-9	cell growth or viability, MTS	–	–	1.27 µM
Cc1cc(C)cc(COc2cc3c(cc2OCc2cc(C)cc(C)c2)C2CC(O)CC(C)N2CC3)c1 (stereo not shown)	ASPC1	cell growth or viability, MTT	–	–	0.965 µM
CN1CCC(N[C@H]2CCc3[nH]c4c(C(N)=O)ccc(-c5ccccc5Cl)c4c3C2)CC1	B16F10	cell proliferation	–	96 h	1.58 µM
CC(C)=CCc1c(OCC2OC2(C)C)ccc2ccc(=O)oc12 (stereo not shown)	COLO 205	cell growth or viability, MTT	–	72 h	> 100 µM
COc1cc(-c2cn(C)c(=O)c3cnccc23)cc(OC)c1Cn1ccnc1	EOL1	cell growth or viability, ATP luminescence	–	–	5.37 µM
CC[C@H](C)[C@H](NC(=O)[C@H](CCCCN)NC(=O)[C@H](CCCCN)NC(=O)[C@@H](NC(=O)[C@@H](NC(=O)[C@H](CC(=O)O)NC(=O)[C@H](Cc1ccccc1)NC(=O)[C@H](CC(C)C)NC(=O)CN)[C@@H](C)CC)[C@@H](C)CC)C(=O)N[C@@H](C)C(=O)N[C@@H](CCC(=O)O)C(=O)N[C@@H](CO)C(=O)N[C@@H](Cc1ccccc1)C(N)=O	NIH 3T3	cytotoxicity	–	–	56.1 µg/mL
C=CC(=O)N1CCCC(n2c(=O)c3ncccc3n(Cc3ccc(Oc4ccccc4)cc3)c2=O)C1 (stereo not shown)	L-82	cell growth or viability, MTT	–	72 h	2 µM
Nc1ncc(-c2cc(-c3cnn(CC(F)(F)F)c3)ncc2F)nc1C(=O)NC1CNCC(F)C1 (stereo not shown)	DLD-1	cell growth or viability	–	–	7.03 µM

Repeated from above:
Structure (SMILES)	cell line	test	system	setting	IC50
O=C(OCc1ccc(O[C@@H]2O[C@H](CO)[C@@H](O)[C@H](O)[C@H]2O)cc1)c1ccc(O)cc1	MDA-MB-231 breast cancer	cell viability, MTT	DMEM with 10% FBS	48 h	> 200 µM
CC[C@H](C)[C@H](NC(=O)C[C@H](CCCCN)NC(=O)[C@H](CCCCN)NC(=O)C[C@@H](NC(=O)[C@@H](NC(=O)C[C@H](CCCCN)NC(=O)[C@H](Cc1ccccc1)NC(=O)C[C@H](CC(C)C)NC(=O)CN)[C@@H](C)CC)[C@@H](C)CC)C(=O)N[C@H](CC(=O)N[C@@H](CCCCN)C(=O)N[C@H](CC(=O)N[C@@H](Cc1ccccc1)C(N)=O)CC(C)C)CC(C)C	NIH 3T3	cytotoxicity	–	–	7 µg/mL
